Experimental data collected from several papers.
± marks the error that the study gave.
HLA class I histocompatibility antigen, A alpha chain allele A*26:01: HLA class I histocompatibility antigen, A alpha chain, allele A*26:01 (Homo sapiens, UniProt P04439)
HLA class I histocompatibility antigen, A alpha chain allele A*24:02: HLA class I histocompatibility antigen, A alpha chain, allele A*24:02 (Homo sapiens, UniProt P04439)
HLA class I histocompatibility antigen, A alpha chain allele A*02:01: HLA class I histocompatibility antigen, A alpha chain, allele A*02:01 (Homo sapiens, UniProt P04439)
Sequence of UniProt P07550 (whole entry, looked up): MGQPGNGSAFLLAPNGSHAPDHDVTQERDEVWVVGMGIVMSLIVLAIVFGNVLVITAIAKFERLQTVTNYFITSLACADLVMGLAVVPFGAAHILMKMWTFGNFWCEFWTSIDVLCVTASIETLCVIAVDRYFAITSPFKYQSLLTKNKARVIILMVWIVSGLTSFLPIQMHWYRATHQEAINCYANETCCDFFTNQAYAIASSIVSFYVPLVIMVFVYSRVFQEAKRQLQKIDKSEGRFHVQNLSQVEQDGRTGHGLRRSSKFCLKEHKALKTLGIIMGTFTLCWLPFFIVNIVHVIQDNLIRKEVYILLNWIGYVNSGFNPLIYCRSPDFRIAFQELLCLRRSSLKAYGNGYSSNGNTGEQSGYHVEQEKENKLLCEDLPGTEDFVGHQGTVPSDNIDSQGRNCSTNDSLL
Sequence of UniProt Q5XXA6 (whole entry, unmodified, looked up): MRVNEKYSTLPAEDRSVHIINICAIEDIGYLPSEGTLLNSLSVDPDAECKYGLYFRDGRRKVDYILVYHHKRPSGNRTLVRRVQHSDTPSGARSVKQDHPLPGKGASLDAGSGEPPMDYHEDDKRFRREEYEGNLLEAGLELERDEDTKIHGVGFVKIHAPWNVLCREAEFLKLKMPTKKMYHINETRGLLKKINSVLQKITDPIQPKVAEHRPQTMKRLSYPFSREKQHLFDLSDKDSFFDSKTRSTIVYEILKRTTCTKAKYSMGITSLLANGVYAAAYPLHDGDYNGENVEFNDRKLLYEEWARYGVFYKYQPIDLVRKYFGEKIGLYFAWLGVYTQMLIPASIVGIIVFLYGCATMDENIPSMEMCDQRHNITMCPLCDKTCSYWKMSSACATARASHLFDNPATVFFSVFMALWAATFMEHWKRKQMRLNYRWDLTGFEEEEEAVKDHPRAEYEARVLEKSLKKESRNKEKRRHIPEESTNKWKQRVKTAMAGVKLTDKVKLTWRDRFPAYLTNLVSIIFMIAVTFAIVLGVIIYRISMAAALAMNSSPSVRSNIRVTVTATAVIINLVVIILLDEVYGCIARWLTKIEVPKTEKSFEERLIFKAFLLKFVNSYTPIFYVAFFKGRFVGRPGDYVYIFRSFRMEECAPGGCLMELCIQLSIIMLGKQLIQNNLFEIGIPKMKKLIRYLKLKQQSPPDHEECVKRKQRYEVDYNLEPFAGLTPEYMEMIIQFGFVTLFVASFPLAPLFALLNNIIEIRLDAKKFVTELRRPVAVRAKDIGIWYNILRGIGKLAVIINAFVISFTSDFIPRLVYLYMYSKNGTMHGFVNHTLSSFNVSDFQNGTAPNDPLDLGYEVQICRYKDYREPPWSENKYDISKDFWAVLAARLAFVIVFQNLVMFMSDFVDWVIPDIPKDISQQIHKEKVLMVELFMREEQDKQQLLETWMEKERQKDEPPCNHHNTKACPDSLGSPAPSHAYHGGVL
Sequence of UniProt Q9UBZ9 (whole entry, looked up): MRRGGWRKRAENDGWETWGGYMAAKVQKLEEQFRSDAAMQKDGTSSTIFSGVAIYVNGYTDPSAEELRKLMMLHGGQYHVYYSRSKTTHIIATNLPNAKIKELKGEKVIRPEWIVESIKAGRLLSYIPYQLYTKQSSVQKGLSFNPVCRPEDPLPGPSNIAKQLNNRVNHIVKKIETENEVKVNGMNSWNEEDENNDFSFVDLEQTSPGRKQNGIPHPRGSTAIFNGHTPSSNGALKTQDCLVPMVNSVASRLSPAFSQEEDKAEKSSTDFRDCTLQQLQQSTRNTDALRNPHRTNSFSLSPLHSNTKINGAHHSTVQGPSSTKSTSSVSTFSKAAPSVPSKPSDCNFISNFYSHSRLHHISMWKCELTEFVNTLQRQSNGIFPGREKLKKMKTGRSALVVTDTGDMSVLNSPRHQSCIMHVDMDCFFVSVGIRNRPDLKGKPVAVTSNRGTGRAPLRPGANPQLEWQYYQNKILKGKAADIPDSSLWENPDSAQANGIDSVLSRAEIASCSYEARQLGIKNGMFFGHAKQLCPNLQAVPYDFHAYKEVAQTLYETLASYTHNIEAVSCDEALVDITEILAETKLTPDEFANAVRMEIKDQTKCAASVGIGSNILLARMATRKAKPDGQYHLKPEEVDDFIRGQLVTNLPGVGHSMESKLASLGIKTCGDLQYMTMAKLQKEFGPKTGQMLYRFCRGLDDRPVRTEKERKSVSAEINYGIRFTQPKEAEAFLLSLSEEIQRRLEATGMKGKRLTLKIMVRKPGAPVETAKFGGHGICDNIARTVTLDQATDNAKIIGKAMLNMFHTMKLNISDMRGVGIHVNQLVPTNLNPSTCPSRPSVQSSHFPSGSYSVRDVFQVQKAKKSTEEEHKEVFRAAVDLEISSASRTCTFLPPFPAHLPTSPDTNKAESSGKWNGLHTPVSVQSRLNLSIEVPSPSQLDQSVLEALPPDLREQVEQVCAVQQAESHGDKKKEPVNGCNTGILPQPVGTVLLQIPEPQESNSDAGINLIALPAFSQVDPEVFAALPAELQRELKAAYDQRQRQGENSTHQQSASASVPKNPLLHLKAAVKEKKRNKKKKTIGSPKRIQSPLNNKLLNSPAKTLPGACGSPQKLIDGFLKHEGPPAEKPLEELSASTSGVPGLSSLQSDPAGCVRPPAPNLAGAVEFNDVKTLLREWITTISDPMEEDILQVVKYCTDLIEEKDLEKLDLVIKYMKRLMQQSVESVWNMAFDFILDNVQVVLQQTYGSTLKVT
Sequence of UniProt P03023 (whole entry, unmodified, looked up): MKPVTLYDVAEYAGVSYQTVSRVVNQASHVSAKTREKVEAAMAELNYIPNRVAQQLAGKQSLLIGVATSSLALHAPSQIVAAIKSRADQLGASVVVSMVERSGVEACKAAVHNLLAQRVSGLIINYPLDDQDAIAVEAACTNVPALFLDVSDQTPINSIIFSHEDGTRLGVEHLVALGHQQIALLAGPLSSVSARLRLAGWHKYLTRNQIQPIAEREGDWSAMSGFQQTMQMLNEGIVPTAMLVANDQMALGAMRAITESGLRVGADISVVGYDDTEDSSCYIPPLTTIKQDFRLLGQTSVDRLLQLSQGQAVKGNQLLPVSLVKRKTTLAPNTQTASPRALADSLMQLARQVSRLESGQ
Sequence of UniProt P52699 (whole entry, looked up): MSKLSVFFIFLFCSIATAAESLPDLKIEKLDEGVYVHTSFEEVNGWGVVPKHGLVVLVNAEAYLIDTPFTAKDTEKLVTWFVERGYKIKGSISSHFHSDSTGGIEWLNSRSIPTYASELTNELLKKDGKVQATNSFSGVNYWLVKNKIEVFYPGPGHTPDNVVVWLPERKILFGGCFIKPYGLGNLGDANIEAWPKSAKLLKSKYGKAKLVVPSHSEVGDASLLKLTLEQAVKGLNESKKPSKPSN
Sequence of UniProt P11234 (whole entry, looked up): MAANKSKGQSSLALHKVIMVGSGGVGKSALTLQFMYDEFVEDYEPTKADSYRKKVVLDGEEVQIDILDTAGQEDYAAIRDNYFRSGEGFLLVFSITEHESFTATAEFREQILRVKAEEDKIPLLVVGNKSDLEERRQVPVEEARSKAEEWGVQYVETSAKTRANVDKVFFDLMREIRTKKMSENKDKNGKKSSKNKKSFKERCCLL
Sequence of UniProt P07197 (whole entry, looked up): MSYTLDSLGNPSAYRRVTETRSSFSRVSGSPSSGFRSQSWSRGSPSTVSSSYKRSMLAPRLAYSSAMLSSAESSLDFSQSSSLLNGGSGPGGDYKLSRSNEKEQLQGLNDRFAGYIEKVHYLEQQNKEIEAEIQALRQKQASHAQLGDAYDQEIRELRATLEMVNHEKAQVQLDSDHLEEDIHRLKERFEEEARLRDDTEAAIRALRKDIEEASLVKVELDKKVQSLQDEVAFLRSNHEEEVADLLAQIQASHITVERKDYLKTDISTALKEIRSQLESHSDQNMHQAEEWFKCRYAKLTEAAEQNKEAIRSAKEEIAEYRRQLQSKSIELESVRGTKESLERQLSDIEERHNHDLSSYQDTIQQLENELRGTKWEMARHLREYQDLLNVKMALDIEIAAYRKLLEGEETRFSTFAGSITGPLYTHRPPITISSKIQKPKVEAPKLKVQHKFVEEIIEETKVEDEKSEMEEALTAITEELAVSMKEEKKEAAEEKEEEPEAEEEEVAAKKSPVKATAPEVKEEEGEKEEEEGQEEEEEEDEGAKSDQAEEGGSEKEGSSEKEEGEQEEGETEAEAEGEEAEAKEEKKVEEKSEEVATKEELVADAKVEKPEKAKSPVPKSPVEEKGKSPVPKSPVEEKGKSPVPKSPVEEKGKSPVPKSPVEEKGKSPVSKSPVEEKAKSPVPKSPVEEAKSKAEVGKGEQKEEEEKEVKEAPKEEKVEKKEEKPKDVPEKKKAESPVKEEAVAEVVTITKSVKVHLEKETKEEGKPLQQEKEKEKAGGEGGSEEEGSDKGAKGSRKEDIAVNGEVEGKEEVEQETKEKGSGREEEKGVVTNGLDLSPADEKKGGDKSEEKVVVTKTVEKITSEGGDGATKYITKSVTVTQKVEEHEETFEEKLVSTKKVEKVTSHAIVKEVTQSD
Sequence of UniProt P05141 (whole entry, looked up): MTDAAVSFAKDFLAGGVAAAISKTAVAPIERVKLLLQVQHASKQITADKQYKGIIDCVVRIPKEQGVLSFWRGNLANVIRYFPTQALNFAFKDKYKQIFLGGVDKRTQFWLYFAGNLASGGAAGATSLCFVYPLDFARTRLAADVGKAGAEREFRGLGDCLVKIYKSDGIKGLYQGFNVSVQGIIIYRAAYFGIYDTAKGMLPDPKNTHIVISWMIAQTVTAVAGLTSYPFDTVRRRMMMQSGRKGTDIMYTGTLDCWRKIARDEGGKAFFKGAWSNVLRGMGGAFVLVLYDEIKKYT
Sequence of UniProt P09467 (whole entry, looked up): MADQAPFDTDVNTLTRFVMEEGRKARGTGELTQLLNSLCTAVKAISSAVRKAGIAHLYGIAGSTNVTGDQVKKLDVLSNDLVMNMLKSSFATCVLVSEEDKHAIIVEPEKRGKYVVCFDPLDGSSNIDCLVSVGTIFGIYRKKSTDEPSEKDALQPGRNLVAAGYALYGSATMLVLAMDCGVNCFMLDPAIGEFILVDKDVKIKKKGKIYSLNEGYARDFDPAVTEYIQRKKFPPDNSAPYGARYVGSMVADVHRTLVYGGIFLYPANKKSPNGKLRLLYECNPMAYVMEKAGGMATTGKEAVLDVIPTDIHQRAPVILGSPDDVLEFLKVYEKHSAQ

SMILES | target | test | system | conditions | IC50 [µM]
CC(C)S[C@@H]1O[C@H](CO)[C@H](O)[C@H](O)[C@H]1O | lacI (Escherichia coli, UniProt P03023, D149C/N125C) | inhibitor | – | – | 6.2
CC[C@H](C)[C@H](NC(=O)[C@@H](NC(=O)[C@H](Cc1c[nH]c2ccccc12)NC(=O)[C@H](CC(=O)O)NC(=O)[C@@H](NC(=O)[C@H](CCCNC(=N)N)NC(=O)[C@@H](N)CCCCN)C(C)C)[C@@H](C)O)C(=O)N[C@@H](CCC(=O)O)C(=O)N[C@@H](Cc1ccc(O)cc1)C(=O)O | HLA class I histocompatibility antigen, A alpha chain allele A*26:01 | peptide-MHC binding, radioligand competition binding | – | – | > 70
c1ccc2c(c1)OCC(C1=NCCN1)O2 (centres unmarked) | imidazoline I2 receptor, rat brain | radioligand binding | – | – | 0.007
CCCc1cc(C(=O)OCC)c(NC(=O)c2cc(O)cc(O)c2)s1 | DNA repair protein REV1, C-terminal domain (Homo sapiens, UniProt Q9UBZ9) | REV1 C-terminal domain-RIR interaction, inhibitor, fluorescence polarization displacement | – | – | > 100
CSCC[C@H](NC(=O)[C@@H](N)CCCCN)C(=O)N[C@@H](Cc1ccc(O)cc1)C(=O)N1CCC[C@H]1C(=O)N[C@H](C(=O)NCC(=O)N[C@@H](Cc1ccccc1)C(=O)N[C@H](C(=O)N[C@@H](Cc1ccc(O)cc1)C(=O)O)[C@@H](C)O)[C@@H](C)O | HLA class I histocompatibility antigen, A alpha chain allele A*24:02 | binding | – | – | 33
Nc1ncnc2c1ncn2[C@@H]1O[C@H](COP(=O)(O)O)[C@@H](O)[C@H]1O | Fructose-1,6-bisphosphatase 1 (Homo sapiens, UniProt P09467) | enzyme activity, inhibitor | – | – | 7.97
CC[C@H](C)[C@H](NC(=O)[C@H](Cc1c[nH]cn1)NC(=O)[C@H](CCCCN)NC(=O)[C@H](Cc1ccc(O)cc1)NC(=O)[C@@H](NC(=O)[C@@H](N)Cc1c[nH]cn1)C(C)C)C(=O)N[C@@H](CC(C)C)C(=O)N[C@H](C(=O)N[C@@H](Cc1ccccc1)C(=O)O)[C@@H](C)O | HLA class I histocompatibility antigen, A alpha chain allele A*24:02 | binding | – | – | 4.96
CNC(C)Cc1ccc2nonc2c1 (centres unmarked) | Solute carrier family 22 member 2 (SLC22A2, Homo sapiens, UniProt O15244) | – | – | – | 15 ± 7.4
CCCCCCCCCCCCCCCC(=O)C(F)(F)F | Fatty-acid amide hydrolase 1 (Faah, Rattus norvegicus, UniProt P97612) | inhibitor | – | added: FP-biotin 1 µM | 3.97
CC[C@H](C)[C@H](NC(=O)[C@H](CCSC)NC(=O)[C@@H](N)CCCNC(=N)N)C(=O)N1CCC[C@H]1C(=O)N[C@@H](CCCCN)C(=O)N[C@H](C(=O)N[C@@H](Cc1ccccc1)C(=O)N[C@@H](Cc1c[nH]cn1)C(=O)N[C@@H](Cc1ccc(O)cc1)C(=O)O)[C@@H](C)O | HLA class I histocompatibility antigen, A alpha chain allele A*24:02 | binding | – | – | 3.83
O=C(NCc1ccc(F)cc1)c1cccc(Nc2ccc(-c3ccccc3)nn2)c1 | Anoctamin-1 (ANO1, Homo sapiens, UniProt Q5XXA6, del476-501) | inhibitor | – | – | 41.9 ± 4.8
COc1cc(F)cc(NS(=O)(=O)c2ccc(S(=O)(=O)F)c3c2CCCC3)c1 | RALB (Homo sapiens, UniProt P11234) | – | – | – | 15
CC[C@H](C)[C@H](NC(=O)[C@H](CCCNC(=N)N)NC(=O)[C@H](CC(=O)O)NC(=O)[C@H](Cc1ccccc1)NC(=O)[C@@H](NC(=O)[C@H](C)N)[C@@H](C)O)C(=O)N[C@@H](Cc1c[nH]cn1)C(=O)N[C@@H](CCC(N)=O)C(=O)N[C@@H](Cc1ccccc1)C(=O)O | HLA class I histocompatibility antigen, A alpha chain, allele A*01:01 (Homo sapiens, UniProt P04439) | binding | – | – | 60
O=[N+]([O-])c1ccc(O)c(Cc2cc([N+](=O)[O-])ccc2O)c1 | ADP/ATP translocase 2 (Homo sapiens, UniProt P05141) | ADP/ATP exchange, inhibitor | yeast mitochondria | isoform ANT2 | 4.1
CC(=O)c1c(C)c2cnc(Nc3ccc(C4CCN(CCS(C)(=O)=O)CC4)cn3)nc2n(C2CCCC2)c1=O | Cytochrome P450 3A4 (CYP3A4, Homo sapiens, UniProt P08684) | enzyme activity, inhibitor | human liver microsomes | added: testosterone substrate | > 10
CC[C@H](C)[C@H](NC(=O)[C@@H](NC(=O)[C@H](CCCCN)NC(=O)[C@H](Cc1c[nH]cn1)NC(=O)[C@H](Cc1ccc(O)cc1)NC(=O)[C@H](CCSC)NC(=O)[C@@H](N)CCCNC(=N)N)C(C)C)C(=O)N[C@H](C(=O)N[C@@H](Cc1ccccc1)C(=O)O)[C@@H](C)O | HLA class I histocompatibility antigen, A alpha chain allele A*02:01 | binding | – | – | 1.6
COc1ncccc1-c1cnn2ccc(N3CCN(C(=O)OC(C)C)CC3)nc12 | Beta-2 adrenergic receptor (ADRB2, Homo sapiens, UniProt P07550) | liability screen | – | – | > 30
CC[C@H](C)[C@H](NC(=O)[C@@H](NC(=O)[C@@H](NC(=O)[C@H](CC(N)=O)NC(=O)[C@@H](NC(=O)[C@H](CO)NC(=O)[C@H](CC(N)=O)NC(=O)[C@H](CC(C)C)NC(=O)[C@@H](N)Cc1ccc(O)cc1)[C@@H](C)O)C(C)C)[C@@H](C)O)C(=O)O | HLA class I histocompatibility antigen, A alpha chain allele A*26:01 | peptide-MHC binding, radioligand competition binding | – | – | > 70
O=C(Cc1ccccc1)N[C@H](C(=O)O)[C@@H]1N=C(C(=O)O)C(CSC(C(=O)O)c2ccccc2)CS1 (some centres unmarked) | Metallo-beta-lactamase type 2 (Serratia marcescens, UniProt P52699) | enzyme activity, inhibitor | – | added: nitrocefin | 0.54 ± 0.02
CC(C)C[C@H](NC(=O)[C@H](CO)NC(=O)[C@H](CO)NC(=O)[C@H](Cc1ccccc1)NC(=O)[C@H](CCC(=O)O)NC(=O)[C@@H](N)CO)C(=O)N1CCC[C@H]1C(=O)N[C@@H](CO)C(=O)N[C@@H](Cc1ccc(O)cc1)C(=O)O | HLA class I histocompatibility antigen, A alpha chain allele A*26:01 | peptide-MHC binding, radioligand competition binding | – | – | 0.875
COc1c(Br)cccc1C(=O)Nc1ccc(Sc2nc3ccccc3s2)cc1 | Chaperonin GroEL, with GroES (groEL, Escherichia coli, UniProt P0A6F5) | GroEL/ES-mediated refolding, inhibitor | – | added: denatured malate dehydrogenase substrate | > 100
C[C@]12CC[C@H](O)C[C@@H]1CC[C@@H]1[C@@H]2CC[C@]2(C)[C@@H]([N+](=O)[O-])CC[C@@H]12 | GABAA receptor, rat | radioligand binding | rat cerebral cortex homogenate | added: 6.25 µM GABA | > 10
O=C1C=CC(=O)c2c(O)cccc21 | Cystathionine gamma-synthase (metB, Helicobacter pylori, UniProt P56069) | inhibitor, coupled spectrophotometric | – | – | 7 ± 0.7
CC(C)C[C@H](NC(=O)[C@@H]1CCCN1C(=O)[C@H](Cc1c[nH]c2ccccc12)NC(=O)[C@H](CC(=O)O)NC(=O)[C@H](Cc1ccc(O)cc1)NC(=O)[C@@H](NC(=O)[C@@H](N)Cc1ccc(O)cc1)C(C)C)C(=O)N[C@H](C(=O)N[C@@H](Cc1ccccc1)C(=O)O)[C@@H](C)O | HLA class I histocompatibility antigen, A alpha chain allele A*02:01 | binding | – | – | 1.03
C[C@H]1CN(c2n[nH]c3nc(N[C@H]4CC[C@H](NS(=O)(=O)CCC(F)(F)F)CC4)ncc23)CCO1 | Neurofilament medium polypeptide (Homo sapiens, UniProt P07197) | biochemical | – | – | ≥ 20
CC(C)C[C@H](NC(=O)[C@@H](N)CCCCN)C(=O)N[C@@H](Cc1ccccc1)C(=O)N1CCC[C@H]1C(=O)N[C@@H](Cc1c[nH]cn1)C(=O)N[C@@H](Cc1ccccc1)C(=O)N[C@@H](Cc1ccc(O)cc1)C(=O)N[C@@H](CCCNC(=N)N)C(=O)N[C@@H](Cc1ccccc1)C(=O)O | HLA class I histocompatibility antigen, A alpha chain allele A*02:01 | binding | – | – | 0.889
COc1cc(Nc2ncc(F)c(Nc3ccc4c(n3)NC(=O)C(C)(C)O4)n2)cc(OC)c1OC | phospholipase C | enzyme activity, inhibitor | – | – | > 10
CC[C@H](C)[C@H](NC(=O)[C@@H](N)CCCNC(=N)N)C(=O)N[C@@H](Cc1ccc(O)cc1)C(=O)NCC(=O)N1CCC[C@H]1C(=O)N1CCC[C@H]1C(=O)N[C@@H](Cc1c[nH]cn1)C(=O)N[C@@H](CCC(N)=O)C(=O)N[C@@H](Cc1ccccc1)C(=O)O | HLA class I histocompatibility antigen, A alpha chain allele A*02:01 | binding | – | – | 5.75
Cc1ccc(S(=O)(=O)Oc2ccc3c(c2)Oc2nc4c(c(N)c2C3c2ccc(Cl)c(Cl)c2)CCCC4)cc1 (centres unmarked) | Beta-secretase 1 (BACE1, Homo sapiens, UniProt P56817) | enzyme activity, inhibitor | – | – | 0.251
